Measurements from different studies.
Each numbered part is a random draw from the data of one study; scales do not carry over between parts. Positions count from the first letter of the parent shown.

Study 1
Target: FOS, bZIP domain (human)
Technique: DHFR protein complementation
Sample: yeast
Setting: single substitutions, most at no-binding floor
Reference: wild-type JUN-FOS pair
Direction: higher = stronger binding
Starting sequence: JUN, bZIP domain (human); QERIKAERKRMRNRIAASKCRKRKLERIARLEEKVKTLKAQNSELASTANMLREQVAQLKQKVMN; partner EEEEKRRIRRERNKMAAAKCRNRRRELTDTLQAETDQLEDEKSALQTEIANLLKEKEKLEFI
Substitution	binding fitness [natural log]
M51C	-0.121
A40V	-0.108
V35M	-0.195
K36L	-0.0737
K36F	-0.264
K39G	-0.865
T37P	-1.14
V35A	-0.201
S43D	-0.0814
R53Y	-0.831
T48P	-1.22
M51S	-0.0497
A46E	0.000725

Study 2
Target: Histone acetyltransferase KAT6A, winged helix 1, GST fusion (KAT6A, Homo sapiens, UniProt Q92794, residues 1-85)
Technique: protein binding microarray
Molecule type: double-stranded DNA, one strand shown
Sample: in vitro
Tested at: not given
Setting: 8-mer, flanks averaged, mean of 2 arrays, mostly near background
Reference: not given
Direction: higher = stronger binding
Target sequence (chain): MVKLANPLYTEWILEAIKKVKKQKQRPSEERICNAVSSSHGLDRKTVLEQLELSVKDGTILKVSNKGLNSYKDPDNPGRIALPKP
Sequence	E-score
CCTGCGCG	0.359
ACTACGAT	-0.0482
CTGGAATC	-0.146
GCTCGTTA	-0.139
CGGGGGGC	0.351
GTCCGCGA	0.241
ACGCAAGC	0.117
GTATGAAC	0.0371
ACAACTAC	-0.0775
CGAACGCA	0.135
CAATGCCG	0.387
GAAGTTAC	-0.0676
CACGGTGG	0.0248
AATCAGGC	-0.124
AGCATCCT	0.0254
AGATGTAT	-0.104
ACAGACAT	-0.0679
GTATAGTA	0.13
CGACTCAG	-0.141
AAAGTTAA	-0.0851
TCAGCTCA	0.0114
CGGCAAAC	0.333
GAAGGTAA	-0.0191
GCCGTCGC	0.464
GACACAGA	-0.0805

Study 3
Target: Phosphate system positive regulatory protein PHO4, full length, GST-tagged (PHO4, Saccharomyces cerevisiae, UniProt P07270, residues 1-312)
Technique: competition protein-binding microarray
Molecule type: double-stranded DNA, one strand shown
Sample: in vitro
Tested at: 2 µM
Setting: whole 60-bp probe, lowest competitor level
Together with: Cbf1 competitor, 0.05 µM
Direction: higher = stronger binding
Shared flanks, not repeated: … GTCTTGATTCGCTTGACGCTGCTG
Residues (chain): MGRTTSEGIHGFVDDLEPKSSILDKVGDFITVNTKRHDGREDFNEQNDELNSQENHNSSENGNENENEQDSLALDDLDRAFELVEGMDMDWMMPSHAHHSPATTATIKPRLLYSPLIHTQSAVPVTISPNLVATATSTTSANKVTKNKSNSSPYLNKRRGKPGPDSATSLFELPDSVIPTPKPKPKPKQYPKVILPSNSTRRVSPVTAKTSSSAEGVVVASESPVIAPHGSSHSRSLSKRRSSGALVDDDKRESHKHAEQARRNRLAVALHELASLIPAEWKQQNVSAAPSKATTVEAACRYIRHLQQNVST
Sequence	fluorescence intensity [a.u.]
CATACCCAACCTTTTCACGTGTTTTAAGATATTTGT	15700
GACTTCATTTGGAACATCATATAGACAAATGGAGTT	3310
CTCTAATCCCACTACCACATGCCATACTCACCTTCA	12100
CGTCCTAGTGATTTTCACGTGTATTCCATGAGGAAG	12300
GCGCTGCTGGTGGTGCCCGTGGTGAAGCCAAGGTCG	7040
GCTGTGTGAGCGGCCCTCGTGGCTCGGGAGGTGCTG	13100
AAATTACTAAGTTGAAGCGTGGGTGACGCCGTATGA	8010
ACTGGTCAAAACCATCACGTGAAAAGGAAAACAAGA	12500
TGCGCAACAACTTGTGTAGTGGGTGTATGTCTAGAA	5050
ACCTACGAGTCCGGCCACGTGCGATCCGTAGCCATT	15600
CTGGTCCTTCTTTATCACATGTCTTCATGGCTTTCA	9210
CTTCTGTAAATTTTTCACGTGACCTGACGCGCCCCG	9980
CTGTTCTGTTCATCGCATGTGCATATATATATATAG	10400
GACTCACCCACTCAGGACATGATGTCAGTAGCGGGT	6060
TTGCTTGCGCTTCTGCATGTGCTTGTGCTTGTGCTT	9550
TGCGCAACAACTTTTCACGTGGGATTATGTCTAGAA	12200
GTCTTGTCTCATTTTCACGTGAGTTTCCCCACTTCA	9760

Study 4
Target: Interferon regulatory factor 5, full length, phosphomimetic (IRF5, Homo sapiens, UniProt Q13568-2, residues 1-514, K96S/S451D/S453D/S456D/S462D)
Technique: protein-binding microarray
Molecule type: double-stranded DNA, one strand shown
Sample: in vitro
Tested at: 250 nM
Setting: 60-bp whole probe
Together with: salmon DNA 0.4 mg/ml
Reference: random background probes
Direction: higher = stronger binding
Shared flanks, not repeated: GCCTAGCAC … GTCTTGATTCGCTTGACGCTGCTG
Sequence	log fluorescence [z-score]
ATAGATTTCAGTTTCGATTAGTGCTAG	10.5
GACGGTTTCGGGACTAGGGACGTGCTA	4.94
GGCTGTTTGGTCCTGATCCTGTGCTAG	-0.334
CACGGACTGGGTTTCGGGACGTGCTAG	2.34
TAACTTTTTTTTTTCCCTGAGTGCTAG	0.915
TTAGATTTCAGTCTCGATTGGTGCTAG	2.74
TTAGAACTGGGGACTAGATTAGTGCTA	-0.216
GACGGCCTGGGGTTTCGGGACGTGCTA	0.819
TTAGGACTGCGGTTTCGGTTAGTGCTA	7.4
TGTGTCCTGGCTTTGACTCTGTGCTAG	-0.498
TTTGGTATCGGACTGGGTTAGTGCTAG	3.2
TTAGGTATCCTGTTCCTTTAGTGCTAG	-0.00692
GACCGACTGCTTTTCCTGACGTGCTAG	-0.294

Study 5
Target: CCNB1, cyclin fold, Cln2 fusion (human)
Technique: yeast growth competition, sequencing
Sample: yeast
Setting: strong parent motif
Reference: not given
Direction: higher = stronger binding
Starting sequence: PKN2 docking peptide (human); VSAVQKLDFSDTM
Substitution	normalised enrichment score
VRAVQKLDFSDTM [S2R]	1.95
VSAVQKLDCSDTM [F9C]	0.115
VPAVQKLDFSDTM [S2P]	0.834
VSAVQKLDFSDIM [T12I]	1.53
VSAVQKSDFSDTM [L7S]	-0.369
NSAVQKLDFSDTM [V1N]	2.64
VSAVQKLDFADTM [S10A]	1.59
VSAVQKLDASDTM [F9A]	0.42
VLAVQKLDFSDTM [S2L]	1.66
VSAVQKLDFSDPM [T12P]	2.83
VSAVQKLDISDTM [F9I]	0.621
VSAVQQLDFSDTM [K6Q]	1.64
VSSVQKLDFSDTM [A3S]	0.782
VSAVQRLDFSDTM [K6R]	2.25
VSAVQKLDFHDTM [S10H]	1.74

Study 6
Target: RING finger protein unkempt homolog, zinc fingers 1-6, GST-SBP tag (UNK, Homo sapiens, UniProt Q9C0B0, residues 30-357)
Technique: RNA Bind-n-Seq
Molecule type: RNA
Sample: in vitro
Tested at: not given
Setting: RNA with constant flanks, ends assumed
Reference: input RNA pool
Direction: higher = stronger binding
Shared flanks, not repeated: GGGAGUUCUACAGUCCGACGAUC … CAACAGAGGAUUGAGCAUCA
Construct (chain): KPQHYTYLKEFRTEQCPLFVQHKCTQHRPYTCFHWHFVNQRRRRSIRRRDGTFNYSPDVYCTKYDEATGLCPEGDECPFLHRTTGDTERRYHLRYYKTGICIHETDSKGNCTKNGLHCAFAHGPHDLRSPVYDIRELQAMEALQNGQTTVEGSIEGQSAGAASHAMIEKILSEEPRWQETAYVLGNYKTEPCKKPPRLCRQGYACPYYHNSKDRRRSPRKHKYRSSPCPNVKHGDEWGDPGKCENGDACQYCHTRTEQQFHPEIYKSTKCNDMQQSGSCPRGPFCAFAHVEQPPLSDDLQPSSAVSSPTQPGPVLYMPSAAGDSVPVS
Sequence	bound/input enrichment
AAAGUCACCUCUCCUGUGUUGGUCAUUCAUGGUACAGAGGAUGAGGUCAUCGAUUUCUCCCAUGGCCCCGCGAUGUACGAGCGCUGUCCCCGAGCCGUGGAGCCCCUUUGGGUUGAAGGG	0.113 ratio
UUCACCGAGCUCAUUAAAGGAUUCGGUUGCCGAGGGGCCCAAGUAGAAGAAAUAUGGAGCUCCGAACCUGAGAGUUUUGAAAAGCUAAAGCCAGUUCAUGGGUUAAUUUUUCUUUUCAAG	0.241 ratio
UCUUUUGAGGUGAUGGUGCUGGCCGAGCUGUUUCUGGAGAUGCUCCAGAGGGAUUUUGGCUACCGAGUUUAUAAGAUGCUACUGAGCCUUCCUGAAAAGGUCGUGUCCCCACCUGAACCU	0.302 ratio
CGGUUUGCAGUCCCUCCAGCACUUGGGAGUAAUUUGACCGACAAUGUCAUGAUCACAGCCGAUAUUAUUCCUUCAGGUUGGAAUUCAGCUGAUGGUAAAAGUGAUAAAACUAAAAGUGCG	0.165 ratio
GGGCCUCUGUUCAAUACCGACUAUGACAUCCUUAAAAGCAAUUUGCAGAACUGCAGCAAGUUCCGUGCCAUACAGUGUGCAGCUGCAGUCCCCAGAGCUCCUGCAGAAUCCCCAUCUUCC	0.286 ratio
GACUUAGAUAAUUCUUUGGAAGUGAAAGCUAAACCUGCUUCUGGCCUAGAUGGUAAUUUCAACCGUGUCCGAAUGGAUAUGUUCAGUGUGUAGGAGUGAAGACAGGAUCCCGUGCUUAAA	0.39 ratio
UCCAAAAAGAUCCAGCAGAUCCAUGUGGUUUCCCAGUUUAAGAUUCUGGUCAGCUUGUCCGAAAACAACAUUUAUGUCCAUGACUUACUGACAUUUCAACAAAUCACUACAGUCUCAAAG	0.0718 ratio
AAACUUCACUCAUCAUUUGAAUACAGUAUUUACAGAGGAUGUUUGAGUUGAGAGCUUUUUCCGGUUUGAGGGGCUUGAUUUUUUUGUAAAUAAAAUUAUGCUUUGUGGCUAUCCAUCAAC	0.134 ratio

Study 7
Target: ABI1, truncated, D143A, DHFR fusion (Arabidopsis thaliana)
Technique: DHFR PCA, deep sequencing
Sample: yeast
Setting: methotrexate growth selection, single substitutions
Together with: (+)-ABA 710 µM
Reference: wild-type fitted maximum
Direction: higher = stronger binding
Starting sequence: PYL1, truncated, DHFR fusion (Arabidopsis thaliana); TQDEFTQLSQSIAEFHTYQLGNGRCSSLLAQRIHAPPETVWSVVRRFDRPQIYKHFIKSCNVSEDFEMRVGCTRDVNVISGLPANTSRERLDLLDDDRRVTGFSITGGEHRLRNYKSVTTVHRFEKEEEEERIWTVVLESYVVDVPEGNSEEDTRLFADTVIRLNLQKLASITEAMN; partner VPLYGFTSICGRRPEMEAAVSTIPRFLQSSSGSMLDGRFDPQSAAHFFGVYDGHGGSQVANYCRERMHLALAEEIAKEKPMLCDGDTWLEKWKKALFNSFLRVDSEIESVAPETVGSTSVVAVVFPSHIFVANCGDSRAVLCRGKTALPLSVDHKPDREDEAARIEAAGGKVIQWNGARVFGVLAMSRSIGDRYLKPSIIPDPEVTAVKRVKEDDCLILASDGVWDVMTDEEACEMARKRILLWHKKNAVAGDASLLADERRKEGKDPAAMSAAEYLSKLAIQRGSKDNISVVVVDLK
Substitution	relative binding score [%]
I12S	72.3
E151Y	95.4
L28G	54.4
T160M	102
G81M	50.3
R99A	97.9
Q51W	105
E38L	78
E130S	112
I133C	111
S150L	87.6
A13K	90.1
E151D	101
F5M	106

Some of these lines once more (study 2):
Sequence	E-score
GACACAGA	-0.0805
CGAACGCA	0.135
CACGGTGG	0.0248
CGGGGGGC	0.351
CGGCAAAC	0.333
CCTGCGCG	0.359
AAAGTTAA	-0.0851
TCAGCTCA	0.0114
GTATAGTA	0.13
GAAGTTAC	-0.0676
CTGGAATC	-0.146
ACAACTAC	-0.0775
CAATGCCG	0.387
CGACTCAG	-0.141
ACAGACAT	-0.0679
